Assay results gathered from unrelated publications.
Every numbered part comes from another study and shows a few of its results, in no order.
Chain of UniProt P35916 (whole entry, looked up): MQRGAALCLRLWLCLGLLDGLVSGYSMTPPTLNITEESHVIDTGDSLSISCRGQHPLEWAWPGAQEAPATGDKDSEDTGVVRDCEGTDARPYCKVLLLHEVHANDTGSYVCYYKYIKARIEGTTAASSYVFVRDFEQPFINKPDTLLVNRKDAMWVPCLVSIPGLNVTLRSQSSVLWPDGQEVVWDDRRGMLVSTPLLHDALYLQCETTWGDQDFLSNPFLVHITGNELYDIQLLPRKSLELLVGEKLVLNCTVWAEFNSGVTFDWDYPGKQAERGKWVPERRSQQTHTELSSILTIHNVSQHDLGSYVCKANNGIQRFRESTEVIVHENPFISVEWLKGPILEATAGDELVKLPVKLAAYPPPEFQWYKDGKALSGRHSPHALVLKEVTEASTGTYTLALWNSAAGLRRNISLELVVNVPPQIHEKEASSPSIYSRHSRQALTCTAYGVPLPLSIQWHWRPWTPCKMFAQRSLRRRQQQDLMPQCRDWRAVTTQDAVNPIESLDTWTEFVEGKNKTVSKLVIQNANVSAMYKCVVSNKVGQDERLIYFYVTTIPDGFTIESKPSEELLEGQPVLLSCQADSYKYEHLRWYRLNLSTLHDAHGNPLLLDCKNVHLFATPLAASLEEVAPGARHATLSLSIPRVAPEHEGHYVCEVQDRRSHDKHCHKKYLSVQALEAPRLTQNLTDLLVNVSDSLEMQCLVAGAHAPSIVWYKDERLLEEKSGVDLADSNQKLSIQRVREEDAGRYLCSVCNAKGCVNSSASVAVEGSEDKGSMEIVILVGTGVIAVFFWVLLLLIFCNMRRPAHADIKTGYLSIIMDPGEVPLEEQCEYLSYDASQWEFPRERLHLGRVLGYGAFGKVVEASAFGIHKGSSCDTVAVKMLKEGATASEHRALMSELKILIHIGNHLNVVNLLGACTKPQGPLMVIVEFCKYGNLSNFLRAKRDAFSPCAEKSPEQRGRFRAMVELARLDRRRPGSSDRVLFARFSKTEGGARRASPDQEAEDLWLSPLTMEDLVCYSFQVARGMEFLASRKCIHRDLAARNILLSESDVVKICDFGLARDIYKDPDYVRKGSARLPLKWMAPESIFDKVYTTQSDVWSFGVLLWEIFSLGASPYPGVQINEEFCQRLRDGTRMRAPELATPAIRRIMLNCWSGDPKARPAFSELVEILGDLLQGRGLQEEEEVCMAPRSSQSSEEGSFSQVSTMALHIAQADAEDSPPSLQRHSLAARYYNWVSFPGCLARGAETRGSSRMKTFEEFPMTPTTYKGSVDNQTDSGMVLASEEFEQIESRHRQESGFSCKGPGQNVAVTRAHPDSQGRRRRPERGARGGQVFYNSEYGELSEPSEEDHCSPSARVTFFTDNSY
Chain of UniProt Q13554 (whole entry, looked up): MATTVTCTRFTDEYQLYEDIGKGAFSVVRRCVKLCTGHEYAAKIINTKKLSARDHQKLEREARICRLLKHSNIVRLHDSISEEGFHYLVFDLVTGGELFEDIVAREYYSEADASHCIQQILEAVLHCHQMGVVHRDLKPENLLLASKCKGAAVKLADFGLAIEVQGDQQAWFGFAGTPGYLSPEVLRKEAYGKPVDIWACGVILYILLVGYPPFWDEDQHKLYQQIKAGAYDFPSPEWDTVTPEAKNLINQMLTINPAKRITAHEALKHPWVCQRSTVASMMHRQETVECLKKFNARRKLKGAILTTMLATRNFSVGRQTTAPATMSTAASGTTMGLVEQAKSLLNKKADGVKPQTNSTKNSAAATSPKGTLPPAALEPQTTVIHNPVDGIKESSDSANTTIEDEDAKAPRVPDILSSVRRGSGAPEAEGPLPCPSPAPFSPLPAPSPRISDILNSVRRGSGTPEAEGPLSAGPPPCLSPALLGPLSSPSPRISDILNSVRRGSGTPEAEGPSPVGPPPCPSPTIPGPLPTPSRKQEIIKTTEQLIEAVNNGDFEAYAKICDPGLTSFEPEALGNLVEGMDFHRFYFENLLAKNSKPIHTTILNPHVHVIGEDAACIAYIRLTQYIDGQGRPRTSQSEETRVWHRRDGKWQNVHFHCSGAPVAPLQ
Chain of UniProt O75116 (whole entry, looked up): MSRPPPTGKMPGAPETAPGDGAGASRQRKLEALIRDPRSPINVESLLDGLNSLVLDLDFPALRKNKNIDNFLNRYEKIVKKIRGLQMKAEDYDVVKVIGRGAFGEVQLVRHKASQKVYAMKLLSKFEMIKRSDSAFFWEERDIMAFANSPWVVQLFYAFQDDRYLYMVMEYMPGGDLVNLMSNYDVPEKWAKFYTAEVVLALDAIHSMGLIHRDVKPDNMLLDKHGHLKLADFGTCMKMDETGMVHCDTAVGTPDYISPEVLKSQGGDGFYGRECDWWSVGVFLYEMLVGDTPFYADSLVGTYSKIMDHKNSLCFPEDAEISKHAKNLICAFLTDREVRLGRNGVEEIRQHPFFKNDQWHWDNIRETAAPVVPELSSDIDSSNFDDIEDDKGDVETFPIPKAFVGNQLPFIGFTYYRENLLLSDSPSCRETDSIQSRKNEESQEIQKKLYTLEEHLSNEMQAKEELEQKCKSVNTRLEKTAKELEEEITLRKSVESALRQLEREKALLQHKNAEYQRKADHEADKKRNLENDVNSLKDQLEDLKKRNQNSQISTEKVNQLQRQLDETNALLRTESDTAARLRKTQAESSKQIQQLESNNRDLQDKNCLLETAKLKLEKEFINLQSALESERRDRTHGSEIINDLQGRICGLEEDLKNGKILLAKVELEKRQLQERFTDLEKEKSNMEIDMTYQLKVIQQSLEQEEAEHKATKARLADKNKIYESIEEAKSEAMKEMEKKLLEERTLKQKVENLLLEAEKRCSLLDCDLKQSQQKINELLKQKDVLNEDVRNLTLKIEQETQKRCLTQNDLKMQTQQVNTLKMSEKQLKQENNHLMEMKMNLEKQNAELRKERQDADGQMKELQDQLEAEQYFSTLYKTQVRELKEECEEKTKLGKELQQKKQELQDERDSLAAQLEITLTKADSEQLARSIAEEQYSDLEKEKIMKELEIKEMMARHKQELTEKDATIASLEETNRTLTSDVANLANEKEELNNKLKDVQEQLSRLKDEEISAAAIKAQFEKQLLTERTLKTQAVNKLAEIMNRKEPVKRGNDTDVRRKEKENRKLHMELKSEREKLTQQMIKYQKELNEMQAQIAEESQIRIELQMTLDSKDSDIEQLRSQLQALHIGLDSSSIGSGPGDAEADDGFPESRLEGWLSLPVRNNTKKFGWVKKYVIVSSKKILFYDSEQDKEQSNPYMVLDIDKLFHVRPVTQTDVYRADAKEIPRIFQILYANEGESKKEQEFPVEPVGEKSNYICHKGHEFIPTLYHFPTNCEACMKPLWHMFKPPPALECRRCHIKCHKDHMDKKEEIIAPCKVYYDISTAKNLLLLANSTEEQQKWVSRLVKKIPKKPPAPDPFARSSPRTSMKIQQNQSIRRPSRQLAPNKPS
Chain of UniProt O00506 (whole entry, looked up): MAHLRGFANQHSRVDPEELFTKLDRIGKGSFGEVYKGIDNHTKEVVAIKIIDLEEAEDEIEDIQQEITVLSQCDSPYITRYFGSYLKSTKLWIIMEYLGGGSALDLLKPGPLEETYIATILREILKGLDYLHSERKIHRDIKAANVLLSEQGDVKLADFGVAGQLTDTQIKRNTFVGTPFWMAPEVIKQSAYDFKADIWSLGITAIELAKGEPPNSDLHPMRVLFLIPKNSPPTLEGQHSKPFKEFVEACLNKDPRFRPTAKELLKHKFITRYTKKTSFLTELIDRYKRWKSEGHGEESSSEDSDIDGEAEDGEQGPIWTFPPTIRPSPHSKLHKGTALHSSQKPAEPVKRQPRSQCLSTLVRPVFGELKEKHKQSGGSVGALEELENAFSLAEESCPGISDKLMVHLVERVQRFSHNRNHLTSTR
Chain of UniProt P0C1S8 (whole entry, looked up): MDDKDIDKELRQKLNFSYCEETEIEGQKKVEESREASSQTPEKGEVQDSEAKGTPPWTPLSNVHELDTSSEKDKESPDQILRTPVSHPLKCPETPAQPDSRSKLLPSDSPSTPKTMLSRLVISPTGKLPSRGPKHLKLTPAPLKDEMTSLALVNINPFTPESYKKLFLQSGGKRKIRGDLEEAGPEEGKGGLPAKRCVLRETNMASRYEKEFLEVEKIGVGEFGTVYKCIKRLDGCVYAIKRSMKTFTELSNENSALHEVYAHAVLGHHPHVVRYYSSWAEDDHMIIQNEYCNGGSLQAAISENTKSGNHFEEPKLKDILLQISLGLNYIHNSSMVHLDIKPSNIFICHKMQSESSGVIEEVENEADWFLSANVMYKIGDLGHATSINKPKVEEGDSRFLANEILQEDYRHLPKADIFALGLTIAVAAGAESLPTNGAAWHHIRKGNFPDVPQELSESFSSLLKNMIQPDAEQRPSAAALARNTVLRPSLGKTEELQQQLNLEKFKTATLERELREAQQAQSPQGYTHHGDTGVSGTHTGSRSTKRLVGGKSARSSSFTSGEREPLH

Block 1
Compound: CN1CCN(c2ccc3nc(-c4c(N)c5c(F)cccc5[nH]c4=O)[nH]c3c2)CC1
Effect on: enzyme activity
Action: inhibitor
Concentration: 0.5 µM
Reference: control
target	remaining activity [%]
LIM domain kinase 1 (LIMK1, Homo sapiens, UniProt P53667)	88.3
MAP/microtubule affinity-regulating kinase 3 (MARK3, Homo sapiens, UniProt P27448)	36.5
RAC-alpha serine/threonine-protein kinase (AKT1, Homo sapiens, UniProt P31749)	98.5
Cyclin-dependent kinase 3, with cyclin E (CDK3, Homo sapiens, UniProt Q00526)	92.3
PAS domain-containing serine/threonine-protein kinase (PASK, Homo sapiens, UniProt Q96RG2)	105
ALK tyrosine kinase receptor (ALK, Homo sapiens, UniProt Q9UM73)	80.5
Serine/threonine-protein kinase MRCK alpha (CDC42BPA, Homo sapiens, UniProt Q5VT25)	97
Serine/threonine-protein kinase N1 (PKN1, Homo sapiens, UniProt Q16512)	15.5
Serine/threonine-protein kinase NLK (NLK, Homo sapiens, UniProt Q9UBE8)	110
cAMP-dependent protein kinase catalytic subunit PRKX (PRKX, Homo sapiens, UniProt P51817)	104
Tyrosine-protein kinase Fgr (FGR, Homo sapiens, UniProt P09769)	6.34
Insulin receptor (INSR, Homo sapiens, UniProt P06213)	84
Proto-oncogene tyrosine-protein kinase Src (SRC, Homo sapiens, UniProt P12931)	16
Tyrosine-protein kinase Fyn (FYN, Homo sapiens, UniProt P06241)	22.5
Serine/threonine-protein kinase Nek11 (NEK11, Homo sapiens, UniProt Q8NG66)	93.6
Vascular endothelial growth factor receptor 3 (FLT4, Homo sapiens, UniProt P35916)	11.3
Tyrosine-protein kinase Fer (FER, Homo sapiens, UniProt P16591)	94.6
Serine/threonine-protein kinase TAO3 (TAOK3, Homo sapiens, UniProt Q9H2K8)	84.2
Megakaryocyte-associated tyrosine-protein kinase (MATK, Homo sapiens, UniProt P42679)	74.9
Serine/threonine-protein kinase 25 (STK25, Homo sapiens, UniProt O00506)	86

Block 2
Organism: Plasmodium berghei
Cells: Huh-7
Strain: liver stage
Concentration: 10 µM
Time: 24 h
Reference: control
SMILES	parasite load [%]
CN1CCN2c3ccccc3Cc3ccccc3C2C1 (centres unmarked)	98.4
Fc1ccc(C(c2ccc(F)cc2)N2CCN(C/C=C/c3ccccc3)CC2)cc1	45.6
C[C@H]1O[C@@H](O[C@H]2[C@@H](O)C[C@H](O[C@H]3[C@@H](O)C[C@H](O[C@H]4CC[C@@]5(C)[C@H](CC[C@@H]6[C@@H]5C[C@@H](O)[C@]5(C)[C@@H](C7=CC(=O)OC7)CC[C@]65O)C4)O[C@@H]3C)O[C@@H]2C)C[C@H](O)[C@@H]1O	22.7
O=C(CCCN1CCC(O)(c2ccc(Cl)cc2)CC1)c1ccc(F)cc1	68.6
Nc1ccc(S(N)(=O)=O)cc1	117
CN1CCN(C2=Nc3cc(Cl)ccc3Nc3ccccc32)CC1	63.6
CN(C)CCC=C1c2ccccc2COc2ccccc21	98.5
O=c1ccc2ccccc2[nH]1	5.6
COc1cc([C@@H]2c3cc4c(cc3[C@H](O)[C@H]3COC(=O)[C@H]23)OCO4)cc(OC)c1OC	96.7
OC(Cn1cncn1)(Cn1cncn1)c1ccc(F)cc1F	85.1

Block 3
SMILES: O=C(Nc1cccnn1)N1CC(C/C=C/c2cncc(Oc3ccc(C(F)(F)F)cn3)n2)C1
Concentration: 1 µM
target	test	remaining binding [%]
Serine/threonine-protein kinase Nek6 (NEK6, Homo sapiens, UniProt Q9HC98)	cell-free assay, competition with immobilised ligand	100
Serine/threonine-protein kinase SIK1 (SIK1, Homo sapiens, UniProt P57059)	competition binding	100
Wee1-like protein kinase 2 (WEE2, Homo sapiens, UniProt P0C1S8)	cell-free assay, competition with immobilised ligand	100
STE20/SPS1-related proline-alanine-rich protein kinase (STK39, Homo sapiens, UniProt Q9UEW8)	cell-free assay, competition with immobilised ligand	77
Vascular endothelial growth factor receptor 1 (FLT1, Homo sapiens, UniProt P17948)	cell-free assay, competition with immobilised ligand	100
Rho-associated protein kinase 2 (ROCK2, Homo sapiens, UniProt O75116)	cell-free assay, competition with immobilised ligand	90
Calcium/calmodulin-dependent protein kinase type II subunit beta (CAMK2B, Homo sapiens, UniProt Q13554)	cell-free assay, competition with immobilised ligand	100
Activin receptor type-2A (ACVR2A, Homo sapiens, UniProt P27037)	cell-free assay, competition with immobilised ligand	100
Interferon-induced, double-stranded RNA-activated protein kinase (EIF2AK2, Homo sapiens, UniProt P19525)	cell-free assay, competition with immobilised ligand	100
Death-associated protein kinase 3 (DAPK3, Homo sapiens, UniProt O43293)	cell-free assay, competition with immobilised ligand	100
Epidermal growth factor receptor (EGFR, Homo sapiens, UniProt P00533, A750P/del747-749)	cell-free assay, competition with immobilised ligand	95
Tyrosine-protein kinase JAK3, JH1 (JAK3, Homo sapiens, UniProt P52333)	cell-free assay, competition with immobilised ligand	100
Inhibitor of nuclear factor kappa-B kinase subunit epsilon (IKBKE, Homo sapiens, UniProt Q14164)	cell-free assay, competition with immobilised ligand	77
Interleukin-1 receptor-associated kinase 3 (IRAK3, Homo sapiens, UniProt Q9Y616)	cell-free assay, competition with immobilised ligand	100
Macrophage colony-stimulating factor 1 receptor, autoinhibited (CSF1R, Homo sapiens, UniProt P07333)	cell-free assay, competition with immobilised ligand	87
Serine/threonine-protein kinase DCLK2 (DCLK2, Homo sapiens, UniProt Q8N568)	cell-free assay, competition with immobilised ligand	100

Block 4
Structure (SMILES): COc1cc(C(=O)N2CCC(N3CCN(C)CC3)CC2)ccc1Nc1ncc2c(n1)N(C)c1ccccc1C(=O)N2C
tested on	test	system	setting	inhibition [%]
FYN (human)	probe labelling, KiNativ ATP probe	human PBMC lysate	concentration not given, LYS1 labelled site	3.1
EGFR (mouse)	probe labelling, KiNativ, item: IPVAIkELR peptide, LYS1 site	brain tissue lysate (mouse)	1 µM, with: ADP acyl-phosphate probe	-7.7
ULK3 mouse	KiNativ profiling	mouse brain lysate	0.1 µM, LYS2 site, with: ADP acyl phosphate probe	7.1
human PBMC	probe labeling, inhibitor, KiNativ profiling	cell lysate	concentration not given, domain 1, LYS1 site, with: ATP acyl-phosphate probe 0.1 µM	0.8
human PBMC	probe labeling, inhibitor, KiNativ profiling	cell lysate	concentration not given, domain 1, LYS2 site, with: ADP acyl-phosphate probe 1 µM	-1.4
MAP2K3 (human)	probe labelling, KiNativ ADP probe	human PBMC lysate	concentration not given, LYS2 labelled site	9.2
LRRK2	KiNativ ADP probe	mouse brain lysate	0.1 µM, LYS1 site	-28.7
mouse FYN/SRC/YES	probe labelling, KiNativ ATP probe	mouse brain lysate	1 µM, activation loop site	-12.6
AXL mouse	KiNativ profiling	mouse brain lysate	0.1 µM, activation loop site, with: ADP acyl phosphate probe	-32.9
human PBMC	probe labeling, inhibitor, KiNativ profiling, item: DIkGANILR	cell lysate	concentration not given, LYS2 site, with: ADP acyl-phosphate probe	-19.1
NEK9 (mouse)	probe labelling, KiNativ, item: DIkTLNIFLTK peptide, LYS2 site	brain tissue lysate (mouse)	0.1 µM, with: ATP acyl-phosphate probe	7.5
human PBMC	probe labeling, inhibitor, KiNativ profiling	cell lysate	concentration not given, ATP site, with: ATP acyl-phosphate probe 0.1 µM	-19.8
NIM1 (mouse)	probe labelling, KiNativ ADP probe	mouse brain lysate	1 µM, LYS1 labelled site	1.3
PKCe (mouse)	probe labelling, KiNativ, item: LYS1 site peptide	brain tissue lysate (mouse)	0.1 µM, with: ATP acyl-phosphate probe	8.7
OSR1 (human)	probe labelling, KiNativ ADP probe	human PBMC lysate	concentration not given, LYS2 labelled site	-42.5
SLK mouse	KiNativ profiling	mouse brain lysate	1 µM, LYS1 site, with: ADP acyl phosphate probe	-13.3

For quick reference, copied from above (block 1):
target	remaining activity [%]
Tyrosine-protein kinase Fyn (FYN, Homo sapiens, UniProt P06241)	22.5
LIM domain kinase 1 (LIMK1, Homo sapiens, UniProt P53667)	88.3
Megakaryocyte-associated tyrosine-protein kinase (MATK, Homo sapiens, UniProt P42679)	74.9
MAP/microtubule affinity-regulating kinase 3 (MARK3, Homo sapiens, UniProt P27448)	36.5
Cyclin-dependent kinase 3, with cyclin E (CDK3, Homo sapiens, UniProt Q00526)	92.3
Serine/threonine-protein kinase N1 (PKN1, Homo sapiens, UniProt Q16512)	15.5
Tyrosine-protein kinase Fgr (FGR, Homo sapiens, UniProt P09769)	6.34
RAC-alpha serine/threonine-protein kinase (AKT1, Homo sapiens, UniProt P31749)	98.5
